Published values from different studies.
Every numbered part comes from another study and shows a few of its results, in no order.

Block 1 — technique: RNA Bind-n-Seq; form: RNA; sample: in vitro; concentration: not given; relative to: input RNA pool; reading: higher = stronger binding
Target: RING finger protein unkempt homolog, zinc fingers 1-6, GST-SBP tag (UNK, Homo sapiens, UniProt Q9C0B0, residues 30-357)
Notes: RNA with constant flanks, human-mouse chimeric sites, ends assumed
Target sequence (chain): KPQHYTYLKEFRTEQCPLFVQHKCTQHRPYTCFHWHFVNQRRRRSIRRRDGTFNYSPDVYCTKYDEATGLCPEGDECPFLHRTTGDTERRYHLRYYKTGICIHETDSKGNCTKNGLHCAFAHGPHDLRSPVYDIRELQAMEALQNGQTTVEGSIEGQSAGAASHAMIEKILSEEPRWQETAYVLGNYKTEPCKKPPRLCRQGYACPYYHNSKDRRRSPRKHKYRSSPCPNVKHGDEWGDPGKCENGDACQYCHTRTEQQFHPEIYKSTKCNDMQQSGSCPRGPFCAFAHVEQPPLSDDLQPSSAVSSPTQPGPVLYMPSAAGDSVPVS
With `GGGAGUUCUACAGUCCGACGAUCCACGUGUCUGCAGUGCUUGAUGUGGACUACUCUCCCACUGGGAAGGAAUUUGUGUCUGCCAGCUUUGAUAAGUCUAUUCGAAUCUUUCCUGUGGACAAGAGCCGAAGCAGGGAAGUGUAUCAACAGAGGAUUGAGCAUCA` the bound/input enrichment was 0.349 ratio.
With `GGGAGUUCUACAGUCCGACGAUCAUCAAAUACUUUGGGGACAUCAUUAGUGUGGGACAGAGACUGUUGCAAGGGGCCCGGAUCUUAGGGAUUCCAGUUAUCAUAACGGAACAAUACCCCAAAGGUCUUGGCAGCACCGUUCAACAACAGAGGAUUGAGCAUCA` the bound/input enrichment was 0.184 ratio.
For `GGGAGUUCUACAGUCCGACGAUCGAGCCCAGUCGGCAGUUUGUAAAGGACUCAAUUCGGCUGGUUAAAAGAUGCACCAAACCUGAUAGAAAAGAAUUCCAGAAGAUUGCCAUGGCUACAGCUAUAGGAUUUGCUAUCAUGGGACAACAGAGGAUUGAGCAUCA`, the bound/input enrichment was 0.314 ratio.
The bound/input enrichment of `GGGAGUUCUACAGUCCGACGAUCGGGGAGAAACCUUACGAAUGCGUUCAGUGUGGGAAAUCGUAUAGUCAGAGCUCAAACCUCUUCAGACAUCAGAGACGACACAAUGCAGAAAAACUUUUGAAUGUUGUGAAGGUUUAAGAACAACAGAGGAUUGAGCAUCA` is reported as 0.511 ratio.
`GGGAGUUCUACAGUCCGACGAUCGACUUUGGGACUGGUCCUCGCAACGCAGCCUACUAUAGCCCUCAUGGACAUAUAUUAGUGCUGGCUGGAUUUGGAAAUCUUCGAGGACAAAUGGAAGUAUGGGAUGUUAAAAACUACAAGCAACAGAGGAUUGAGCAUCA` has a bound/input enrichment of 0.415 ratio.
`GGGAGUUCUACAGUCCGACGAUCAUUCCGAUUAUGGACACCGGUGAAAACCCAGAGGUUCCCUUCCCCCGGGACAUGAUUGACUUAGAGGCCAAUUUCGAGAAGAUUGAAAAUGAACUGAAGGAAAUCAACACUAACCAGGAACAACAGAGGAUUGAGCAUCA` has a bound/input enrichment of 0.0831 ratio.
With `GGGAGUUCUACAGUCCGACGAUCCUGAAAAACACAGAUAUCAAAGUUGUUGACUUUGGAAGUGCAACGUAUGACGACGAACAUCACAGUACUUUGGUGUCUACCCGGCACUACAGAGCUCCAGAGGUCAUUUUGGCUUUAGGUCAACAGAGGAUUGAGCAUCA` the bound/input enrichment was 0.206 ratio.
`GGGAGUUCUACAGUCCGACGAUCCAGUCCCCGUGUCCCAGGGGACAAUGUUGUGAACAAAAACUCAAAGCGGACCCUCUAUUGUAGUUCUUGAUUCUCGAAAUGUGCUAUUAUUGUUUGUCUUUUUUUUUUUUUUUUUAAAGACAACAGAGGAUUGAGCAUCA` has a bound/input enrichment of 1.52 ratio.

Block 2 — technique: RNA Bind-n-Seq; form: RNA; sample: in vitro; concentration: 200 nM; notes: whole 134-nt RNA, ends assumed; with: 150 mM LiCl; relative to: input library; reading: higher = stronger binding; each molecule: 7-deaza-guanosine replaces G
Target: Fragile X messenger ribonucleoprotein 1, C-terminal low-complexity region (Fmr1, Mus musculus, UniProt P35922)
With `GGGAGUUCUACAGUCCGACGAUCCUCAAGUCCUGUGCUACACAUCGUAUGUACCGAAUCGGGCGGGGCGGGGCGGGAAAGUAUUAUGUUACGCCGUUCGGAUCUGCACUUCCAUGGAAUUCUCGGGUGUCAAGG` the log2 enrichment was 0.0359.
The log2 enrichment of `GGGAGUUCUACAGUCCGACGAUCUAACUUUAGAGGAGGAUCUGAUGGAUAUGGCAGUGGACGUGGAUUUGGGGAUGGCUAUGAUGGGUAUGGAGGAGGACCUGGAGGUGGCAAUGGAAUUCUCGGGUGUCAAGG` is reported as 0.388.
`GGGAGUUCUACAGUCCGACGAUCCCUGUGCUACACAUCGUAUGUACCGAAUCAAAUUUUUAAACCCCCCCAAAUUUUUUUAAAAAAGUAUUAUGUUACGCCGUUCGGAUCUGCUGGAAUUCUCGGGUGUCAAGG` has a log2 enrichment of 1.24.
With `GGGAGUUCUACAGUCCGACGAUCCCUCAAGUCCUGUGCUACACAUCGUAUGUACCGAAUCGUGUGUGUGUGUGUGUAAAGUAUUAUGUUACGCCGUUCGGAUCUGCACUUCCAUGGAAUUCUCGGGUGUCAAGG` the log2 enrichment was -0.434.
With `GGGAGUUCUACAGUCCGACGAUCCACAGACAACACGCACCCACACAGACACAGAGGGAAGAAAUUGGGAUGGGGACAGGGUGCACAGCAGGGCGGGGUAGGACCCCAGCCCCUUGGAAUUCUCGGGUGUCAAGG` the log2 enrichment was -0.97.
The log2 enrichment of `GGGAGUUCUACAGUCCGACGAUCCUGUGCUACACAUCGUAUGUACCGAAUCGGGGCCCCCCCGGGCCCCCCCGGGGCCCCCCCGGAAAGUAUUAUGUUACGCCGUUCGGAUCUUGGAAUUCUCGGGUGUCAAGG` is reported as -1.48.
The log2 enrichment of `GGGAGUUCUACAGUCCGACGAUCCUGUGCUACACAUCGUAUGUACCGAAUCGGGAAAAAAAGGGGAAAAAAAGGGAAAAAAAGGGAAAGUAUUAUGUUACGCCGUUCGGAUCUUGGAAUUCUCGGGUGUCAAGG` is reported as 0.326.
For `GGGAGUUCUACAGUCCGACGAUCGUCCUGUGCUACACAUCGUAUGUACCGAAUCGGGAGGGUUUUUUUGGGUUUUUUUGGGAAAGUAUUAUGUUACGCCGUUCGGAUCUGCACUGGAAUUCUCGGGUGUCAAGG`, the log2 enrichment was -0.574.

Block 3 — technique: protein-binding microarray; form: double-stranded DNA, one strand shown; sample: in vitro; concentration: 250 nM; notes: 60-bp whole probe; with: salmon DNA 0.4 mg/ml; relative to: random background probes; reading: higher = stronger binding; constant ends, left off below: GCCTAGCAC … GTCTTGATTCGCTTGACGCTGCTG
Target: Interferon regulatory factor 7, full length, phosphomimetic (IRF7, Homo sapiens, UniProt Q92985, residues 1-503, S101K/S471D/S472D/S475D/S476D/S477D/S483D/S484D/S487D)
UniProt Q92985, sequence (whole entry, unmodified, looked up): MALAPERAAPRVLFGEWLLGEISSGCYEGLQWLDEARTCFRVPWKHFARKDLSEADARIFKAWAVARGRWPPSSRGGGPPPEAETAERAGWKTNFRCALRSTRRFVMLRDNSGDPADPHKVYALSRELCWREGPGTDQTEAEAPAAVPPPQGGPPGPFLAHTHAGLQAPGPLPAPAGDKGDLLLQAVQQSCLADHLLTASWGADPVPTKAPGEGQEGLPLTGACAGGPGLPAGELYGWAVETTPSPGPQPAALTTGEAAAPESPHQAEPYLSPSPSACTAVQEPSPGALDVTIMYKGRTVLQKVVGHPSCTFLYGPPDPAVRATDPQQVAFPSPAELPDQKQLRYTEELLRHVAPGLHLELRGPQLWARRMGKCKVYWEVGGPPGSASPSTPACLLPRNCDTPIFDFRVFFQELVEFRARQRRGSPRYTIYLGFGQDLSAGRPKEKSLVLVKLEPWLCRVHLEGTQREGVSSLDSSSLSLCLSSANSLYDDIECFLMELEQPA
With `GACGGTCTCGGACTGCGGACGTGCTAG` the log fluorescence was 0.0457 z-score.
The log fluorescence of `GACGGACTGGACACTTGGGACGTGCTA` is reported as -0.604 z-score.
With `TTAGGTATCGGGTTTCGGCTAGTGCTA` the log fluorescence was 3.13 z-score.
The log fluorescence of `TGAGGTATCGGGTATCGGTTAGTGCTA` is reported as 1.12 z-score.
`TTAGATTTCGGGTAGCGATTAGTGCTA` gave a log fluorescence of 0.524 z-score.
With `TTAGGTATCCTTCTACTTTAGTGCTAG` the log fluorescence was 0.00989 z-score.
The log fluorescence of `TCATATTTTTTTGTAATACTGTGCTAG` is reported as 0.821 z-score.
For `TCAAGCCTCTGTTTTGAACTGTGCTAG`, the log fluorescence was -0.0726 z-score.
With `TCAAGTTTATTTATTTTACTGTGCTAG` the log fluorescence was 0.12 z-score.
For `TTAGGACTGGACTATCCGTTAGTGCTA`, the log fluorescence was -0.252 z-score.
`AACGATCTCAGTTTCGAGACGTGCTAG` has a log fluorescence of 3.93 z-score.
`TTAGGTTTTGACACTGGGTTAGTGCTA` has a log fluorescence of -0.285 z-score.
`TTAGGACTGGGTCTCGGTGAGTGCTAG` gave a log fluorescence of -0.175 z-score.
The log fluorescence of `GACGGTCTCGGTCTCGTGACGTGCTAG` is reported as 0.65 z-score.
`GACGGTTTCGACCATCGGGACGTGCTA` has a log fluorescence of 2.35 z-score.
For `TTATGTATCGGTATCGGTTAGTGCTAG`, the log fluorescence was 1.43 z-score.
For `GGACCGACCCCTCCATCCCTGTGCTAG`, the log fluorescence was -0.537 z-score.
The log fluorescence of `GACGATTTCGGTTATCGAGACGTGCTA` is reported as 1.59 z-score.
With `TCAGTTTCTCCTTTCCAACTGTGCTAG` the log fluorescence was 4.26 z-score.
`TTAGAACTGGCGACTGGATTAGTGCTA` has a log fluorescence of -0.495 z-score.
`GACGGTTTCGAACTGGGGACGTGCTAG` has a log fluorescence of 4.61 z-score.
`CTCATTCGTCATTTCACAGTGTGCTAG` gave a log fluorescence of 1.35 z-score.
The log fluorescence of `TTAGGTTTCGTTATCCTTTAGTGCTAG` is reported as 12.4 z-score.
`CCTTCTCTAACCTCTCTAATAGTGCTA` has a log fluorescence of 0.975 z-score.
`TCATACATGGGTATAGAACTGTGCTAG` gave a log fluorescence of -0.156 z-score.

Block 4 — technique: protein binding microarray; form: double-stranded DNA, one strand shown; sample: in vitro; concentration: not given; relative to: not given; reading: higher = stronger binding
Target: Histone acetyltransferase KAT6A, both winged helices, GST fusion (KAT6A, Homo sapiens, UniProt Q92794, residues 1-181)
Notes: 8-mer, flanks averaged, mean of 2 arrays, mostly near background
Target sequence (chain): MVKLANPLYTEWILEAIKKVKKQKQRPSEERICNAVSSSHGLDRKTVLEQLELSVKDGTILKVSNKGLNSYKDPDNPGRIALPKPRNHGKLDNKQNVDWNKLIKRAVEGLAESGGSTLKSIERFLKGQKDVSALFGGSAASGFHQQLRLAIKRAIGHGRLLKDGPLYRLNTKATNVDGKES
The E-score of `AATTACCC` is reported as -0.0876.
With `AAGGCCGG` the E-score was 0.218.
With `AGGACAGA` the E-score was -0.189.
For `AGAATTCA`, the E-score was -0.093.
`AAGCAATT` gave an E-score of 0.0806.
For `ATGCACTG`, the E-score was -0.271.
The E-score of `TCATCTCA` is reported as -0.13.
With `CACCGCTA` the E-score was 0.151.
With `ATAAACAC` the E-score was 0.0191.
For `GATAAGCA`, the E-score was -0.0605.
`AAAACATC` gave an E-score of -0.168.
`ACCATCTA` has an E-score of -0.23.
The E-score of `TAGCCCCA` is reported as -0.15.
With `CCTGTGAC` the E-score was -0.181.

Repeated from above (block 2):
With `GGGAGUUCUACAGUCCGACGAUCCUCAAGUCCUGUGCUACACAUCGUAUGUACCGAAUCGGGCGGGGCGGGGCGGGAAAGUAUUAUGUUACGCCGUUCGGAUCUGCACUUCCAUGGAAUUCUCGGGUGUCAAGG` the log2 enrichment was 0.0359.
The log2 enrichment of `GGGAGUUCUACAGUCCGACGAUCUAACUUUAGAGGAGGAUCUGAUGGAUAUGGCAGUGGACGUGGAUUUGGGGAUGGCUAUGAUGGGUAUGGAGGAGGACCUGGAGGUGGCAAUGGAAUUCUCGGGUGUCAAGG` is reported as 0.388.
`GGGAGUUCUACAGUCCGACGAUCCCUGUGCUACACAUCGUAUGUACCGAAUCAAAUUUUUAAACCCCCCCAAAUUUUUUUAAAAAAGUAUUAUGUUACGCCGUUCGGAUCUGCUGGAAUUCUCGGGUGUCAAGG` has a log2 enrichment of 1.24.
With `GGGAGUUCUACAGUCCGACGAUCCCUCAAGUCCUGUGCUACACAUCGUAUGUACCGAAUCGUGUGUGUGUGUGUGUAAAGUAUUAUGUUACGCCGUUCGGAUCUGCACUUCCAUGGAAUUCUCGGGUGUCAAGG` the log2 enrichment was -0.434.
With `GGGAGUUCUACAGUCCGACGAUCCACAGACAACACGCACCCACACAGACACAGAGGGAAGAAAUUGGGAUGGGGACAGGGUGCACAGCAGGGCGGGGUAGGACCCCAGCCCCUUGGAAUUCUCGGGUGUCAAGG` the log2 enrichment was -0.97.
The log2 enrichment of `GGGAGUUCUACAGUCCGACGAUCCUGUGCUACACAUCGUAUGUACCGAAUCGGGGCCCCCCCGGGCCCCCCCGGGGCCCCCCCGGAAAGUAUUAUGUUACGCCGUUCGGAUCUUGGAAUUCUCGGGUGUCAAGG` is reported as -1.48.
The log2 enrichment of `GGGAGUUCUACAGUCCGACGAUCCUGUGCUACACAUCGUAUGUACCGAAUCGGGAAAAAAAGGGGAAAAAAAGGGAAAAAAAGGGAAAGUAUUAUGUUACGCCGUUCGGAUCUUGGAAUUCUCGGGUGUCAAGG` is reported as 0.326.
